Assay results of several laboratories.
Protocols differ between the studies behind these lines. ± gives the spread as reported.

The terminal half-life of `O=C(c1cccnc1-c1ccncc1)N1CCC(O)(Cc2ccccc2)CC1` is reported as 2.62 h (healthy Japanese adults, plasma; oral, 200 mg twice daily, day 14).
With `C=CC(=O)NC1CCN(c2ncc3ncnc(Nc4ccc(Oc5ccc6c(c5)ncn6C)c(C)c4)c3n2)CC1` the terminal half-life was 1250 h (item: total radioactivity; healthy male volunteers, whole blood; oral solution, 60 mg, 14C-labelled).
For `C[C@@]1(c2cc(NC(=O)c3ccc(C#N)cn3)ccc2F)C=CSC(N)=N1`, the terminal half-life was 11.7 h (elderly men and women, plasma; oral, 1 mg single dose).
The terminal half-life of `COc1nnc2ccc(N3CCC(c4ccc(OCCN5CCN(C)C(=O)[C@H]5C)cc4)CC3)nn12` is reported as 2.16 h (patients, plasma; oral, 15 mg twice daily, single dose, monotherapy).
The terminal half-life of `CS(=O)(=O)c1ccc([C@@H](O)[C@@H](CF)NC(=O)C(Cl)Cl)cc1` is reported as 2.25 ± 0.49 h (Arbor Acres chickens, plasma; oral, 20 mg/kg, together with: quercetin 20 mg/kg pretreatment).
With `C#C[C@]1(O)CC[C@H]2[C@@H]3CCC4=CC(=O)CC[C@@H]4[C@H]3CC[C@@]21C` the terminal half-life was 24.3 h (radioimmunoassay; HIV-infected women, no protease inhibitor, serum; oral, 0.35 mg, geometric mean).
Under “terminal elimination rate constant”, `CC[C@H](C)CCCCC(=O)N[C@@H](CCN)C(=O)N[C@H](C(=O)N[C@@H](CCN)C(=O)N[C@H]1CCNC(=O)[C@H]([C@@H](C)O)NC(=O)[C@H](CCN)NC(=O)[C@H](CCN)NC(=O)[C@H](CC(C)C)NC(=O)[C@@H](Cc2ccccc2)NC(=O)[C@H](CCN)NC1=O)[C@@H](C)O` is recorded as 0.0463 h⁻¹ (long-term haemodialysis patients, plasma; IV infusion, 0.75 mg/kg, 1 h infusion, arithmetic mean).
For `CC(=O)Nc1ccc(C[C@H](NC(=O)[C@H](CO)NC(=O)[C@@H](Cc2cccnc2)NC(=O)[C@@H](Cc2ccc(Cl)cc2)NC(=O)[C@@H](Cc2ccc3ccccc3c2)NC(C)=O)C(=O)N[C@H](Cc2ccc(NC(C)=O)cc2)C(=O)N[C@@H](CC(C)C)C(=O)N[C@@H](CCCCNC(C)C)C(=O)N2CCC[C@H]2C(=O)N[C@H](C)C(N)=O)cc1`, the terminal half-life was 9.2 ± 6.3 h (healthy men, fasted, serum; oral, 20 mg single dose).
